Assay results pooled from the literature.
Parts stem from different laboratories: compare values within a part only.

Sample 1 — method: RNA Bind-n-Seq; molecule type: RNA; medium: in vitro; concentration: 365 nM; reference: no-protein control; direction: higher = stronger binding
Target: RNA binding protein fox-1 homolog 2, RRM domain, GST-SBP tag (RBFOX2, Homo sapiens, UniProt O43251-10, residues 100-194)
Notes: natural RNA segment, single round, ends assumed
Target sequence (chain): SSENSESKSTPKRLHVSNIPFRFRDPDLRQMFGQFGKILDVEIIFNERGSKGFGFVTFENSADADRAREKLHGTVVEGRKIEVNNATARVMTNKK
| Sequence | RBNS enrichment (R) |
| --- | --- |
| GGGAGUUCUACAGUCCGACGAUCCCCUUAUGCCUCUUCCAUGGGAACAAAUACUGUGCAGAUGUUUGUAAGUUAAACAUAAGACACAGGGGCUGUUGCUUUUGAACAGAACCCUAUAUUACUCUCCUGGGAUCUGGAAUUCUCGGGUGCCAA | 0.721 |
| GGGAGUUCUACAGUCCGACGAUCCGGGGGAACACACACAAAUGGAAAAAAAUUGUAAGCACUUUUUUUGUAAAACCAAUGUCUGUUUUGUUACAUACCUUUCAUGUUGUGCUUUGUAAAUGUCUUAUUUGUGUUGGAAUUCUCGGGUGCCAA | 0.774 |
| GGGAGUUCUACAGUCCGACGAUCGGUGAGACAUAUUCUCCAUAAAGCUACUGUAGUAGAAUUCAUUCUGGGCAAACACUGAAAAAAGUGCCUUACAGUAUUUCUGCUCAUGAAAGAGUUUCACUAUUUUGGAUUGGAAUUCUCGGGUGCCAA | 0.38 |
| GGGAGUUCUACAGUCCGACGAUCGUAGCGGCUUGGGUCUGACACAUCUUUGAACCUUGUGGCCAGGCCUGGACUUCGCCCCCAGGCCUAGGACCGCGGUGGGUGGAACCCUGCUACUGCCCCAACAGGGACUCUGGAAUUCUCGGGUGCCAA | 0.325 |
| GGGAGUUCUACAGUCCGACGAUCAUAAACAUUUUAUUAUGAUGGUGCUAGGUACAAAAUUUAUAGCAUGGGAUGUGAAGAAAAAAAAUGAGAACCCAUUGAAAGGAAGAAAGGAAUUUGUUGUCUGCUUCUAAUGGAAUUCUCGGGUGCCAA | 5.61 |
| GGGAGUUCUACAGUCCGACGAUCUCUGUUUCUAGACCUCAGUUAUUUUCCCAUUUUUGGUUGUUUUGAAGCAGUAACAUUUUUCUCAGUGCACAUGCAAUUUGGGUUUUAGAGAAGAUGGCCACCAGCUGGCUUGGAAUUCUCGGGUGCCAA | 0.449 |
| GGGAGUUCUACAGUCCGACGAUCUCUCCUUGAGCAUUGAGUACAGUACAUUUUGGAAGCUUGAAACCAAAAUUAAAGAGAGAGAGCGAGAACCUGUUUCUGCUUGGCCUGUUUUAUCCGAAAUAUGAAACCUCUGGAAUUCUCGGGUGCCAA | 0.918 |
| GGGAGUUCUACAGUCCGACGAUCCGGGGAGGGUUGGCAGUGGUGGGGCCCAUCCUCUAUCCUGUAGCUCCUGCCGCUGCGAGGCUGAACUCUUUGGUCCUGCCUCCCGUUCUCAAUACACUCUGUCUCAAAUCUGGAAUUCUCGGGUGCCAA | 0.546 |
| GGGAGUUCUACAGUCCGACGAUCAACCGUCUUCACAAUGUAUUUUCAUCACAGUUUAAGGAGCAUCAGCCGCUUCUCAAGUGGGUAGGGAAAGCAGAAAAACGUACGCAAGAGGACAUGGAUCCAAAAUGAUGUGGAAUUCUCGGGUGCCAA | 0.443 |
| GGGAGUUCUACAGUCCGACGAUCUCUUAGAAGCCAUAGAUUUGGACAAGCCCAGCAAGAUGGGUGUCCUUCCAGGCCUCUUCCCCUUUCCUCCAUCUCUGGCAACAGUUCUUGGGGUUUGGCAAUUGUUUGGAUGGAAUUCUCGGGUGCCAA | 0.324 |
| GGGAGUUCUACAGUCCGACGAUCGUGGAGAUGUGGCUGGACAGGUUUGCCAUCAGAGUGGAUAUACCGUUGUAUUAAAAACAAGAUAAAAAAGCUGCCAAGAUUUUUGGCGAGUGGUUGGUCUGAAGUCCUUGUGGAAUUCUCGGGUGCCAA | 0.623 |
| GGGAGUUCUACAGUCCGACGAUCACAGCCUGGGAUGGCUCCAACUUCUUGCCCCUUCGGACCAAGUCCUGUGGCCAUGAAGUCGUCUCCUGCCUCGAUGUCAGUGAAUCCGGCACCUUCCUAGGCCUGGGCACUGGAAUUCUCGGGUGCCAA | 0.183 |

Sample 2 — method: protein binding microarray; molecule type: double-stranded DNA, one strand shown; medium: in vitro; concentration: not given; reference: not given; direction: higher = stronger binding
Target: Histone acetyltransferase KAT6A, winged helix 2, GST fusion (KAT6A, Homo sapiens, UniProt Q92794, residues 85-181)
Notes: 8-mer, flanks averaged, mean of 2 arrays, mostly near background
Residues (chain): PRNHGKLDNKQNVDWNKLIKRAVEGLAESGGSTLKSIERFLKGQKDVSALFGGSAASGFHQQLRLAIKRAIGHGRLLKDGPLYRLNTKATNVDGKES
| Sequence | E-score |
| --- | --- |
| ACGCGTCT | -0.0868 |
| GATGCAGC | -0.053 |
| CTACCCAG | -0.14 |
| CGGTGAGA | 0.103 |
| CAAGGGAC | -0.05 |
| ATCAACGG | 0.0466 |
| GGTTAGCA | -0.037 |
| ACAGGAGT | -0.0696 |
| CACTTGGA | 0.0427 |
| CTTCGGAC | 0.177 |
| GATTTGGC | -0.0664 |
| GGCGACAA | 0.136 |
| ACCTTAGT | -0.129 |
| CTTAGCAC | 0.0633 |
| GCTTCGCC | 0.154 |
| ATGACCTC | -0.144 |
| GCCGAACC | -0.00095 |
| ATTAATGA | 0.0969 |
| CGGTATCA | -0.025 |
| CTTTATGC | 0.0814 |
| CGATAGTC | -0.0182 |
| GCCGACTA | 0.00484 |
| AAGCTTAA | 0.073 |
| CACTACGA | 0.118 |

Sample 3 — method: universal PBM; molecule type: double-stranded DNA, one strand shown; medium: in vitro; concentration: 600 nM; direction: higher = stronger binding
Target: Sal-like protein 4, full length isoform A (SALL4, Homo sapiens, UniProt Q9UJQ4, residues 1-1053)
Sequence of UniProt Q9UJQ4 (whole entry, looked up): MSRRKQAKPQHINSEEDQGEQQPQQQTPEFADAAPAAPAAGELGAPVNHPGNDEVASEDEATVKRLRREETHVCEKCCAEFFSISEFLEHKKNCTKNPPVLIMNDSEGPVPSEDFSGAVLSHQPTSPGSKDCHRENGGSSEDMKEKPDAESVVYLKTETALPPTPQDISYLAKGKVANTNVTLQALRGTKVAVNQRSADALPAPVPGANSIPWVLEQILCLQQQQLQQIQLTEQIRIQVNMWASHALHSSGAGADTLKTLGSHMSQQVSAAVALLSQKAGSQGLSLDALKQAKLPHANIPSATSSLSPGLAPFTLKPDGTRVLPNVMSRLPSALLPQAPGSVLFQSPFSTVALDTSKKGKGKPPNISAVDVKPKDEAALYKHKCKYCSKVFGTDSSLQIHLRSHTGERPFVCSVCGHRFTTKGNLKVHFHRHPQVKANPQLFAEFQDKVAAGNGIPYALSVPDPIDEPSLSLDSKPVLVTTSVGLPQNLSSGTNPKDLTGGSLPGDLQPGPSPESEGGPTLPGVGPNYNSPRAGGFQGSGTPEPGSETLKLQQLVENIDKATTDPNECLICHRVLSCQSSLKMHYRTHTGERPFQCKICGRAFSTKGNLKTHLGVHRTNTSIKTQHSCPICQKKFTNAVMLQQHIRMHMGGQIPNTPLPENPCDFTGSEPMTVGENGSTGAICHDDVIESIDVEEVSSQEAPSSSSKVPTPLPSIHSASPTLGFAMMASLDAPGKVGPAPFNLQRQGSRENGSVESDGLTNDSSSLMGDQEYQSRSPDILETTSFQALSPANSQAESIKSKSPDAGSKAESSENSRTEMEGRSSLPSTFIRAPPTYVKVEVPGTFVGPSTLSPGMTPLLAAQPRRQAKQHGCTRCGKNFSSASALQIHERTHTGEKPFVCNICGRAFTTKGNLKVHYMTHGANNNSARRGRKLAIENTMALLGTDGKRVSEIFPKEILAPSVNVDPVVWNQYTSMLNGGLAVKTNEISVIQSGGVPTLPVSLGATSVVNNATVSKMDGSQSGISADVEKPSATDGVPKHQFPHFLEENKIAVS
Notes: 8-mer, flanks averaged, mean of replicates
| Sequence | E-score |
| --- | --- |
| GCTCCTTA | -0.0767 |
| ATAGGGAC | 0.0476 |
| AATGTGCC | -0.0139 |
| CCGGTTAA | -0.187 |
| CCGATCCC | -0.35 |
| AAGGGAGA | -0.0466 |
| GCTACACA | 0.077 |
| CTGAGAAA | 0.00415 |
| GTTAATCA | 0.277 |
| TCCATGAA | 0.248 |
| AGAACGAT | 0.058 |
| ACCTGATG | -0.144 |
| GCTTTCTA | 0.105 |
| ACAGTAGT | 0.077 |
| TCTATAGA | 0.194 |
| GAGTCTAA | 0.0426 |
| GGGATACC | -0.334 |
| AACTGGTG | -0.151 |
| ACCAAGCT | -0.0556 |
| ACAAACAG | 0.0802 |
| CATAACGA | 0.15 |
| CCGTCGGC | -0.369 |

Sample 4 — method: aptamer microarray, sandwich; molecule type: DNA with 2'F-ANA; medium: in vitro; concentration: 200 nM; added: Cy3 exosite-II aptamer, 400 nM; direction: higher = stronger binding; sequence: GGTTGGTGTGGTTGG
Target: Prothrombin, mature alpha-thrombin (F2, Homo sapiens, UniProt P00734)
Notes: whole 15-mer aptamer, many near background
| Modification | mean fluorescence intensity [a.u.] |
| --- | --- |
| 2'F-ANA at 1 2 4 5 6 7 8 9 10 11 13 14 | 48.7 |
| 2'F-ANA at 2 3 5 7 10 13 | 58.9 |
| 2'F-ANA at 4 6 8 9 13 | 174 |
| 2'F-ANA at 5 6 7 9 10 11 12 13 14 | 49.5 |
| 2'F-ANA at 2 3 5 11 | 86 |
| 2'F-ANA at 2 3 7 8 9 12 15 | 1150 |
| 2'F-ANA at 3 9 11 12 13 14 15 | 601 |
| 2'F-ANA at 2 4 5 7 9 11 12 13 15 | 125 |
| 2'F-ANA at 1 2 7 8 12 13 14 15 | 81.1 |
| 2'F-ANA at 1 2 4 5 9 11 12 13 14 | 48.5 |
| 2'F-ANA at 1 2 4 5 6 8 12 13 | 73.8 |
| 2'F-ANA at 3 5 6 9 12 13 | 152 |
| 2'F-ANA at 3 5 10 11 13 15 | 65 |
| 2'F-ANA at 2 4 6 10 11 13 14 15 | 60 |
| 2'F-ANA at 2 3 5 6 7 10 | 48.9 |
| 2'F-ANA at 1 2 3 7 10 12 13 14 | 72.6 |
| 2'F-ANA at 1 3 7 10 11 12 | 110 |
| 2'F-ANA at 1 7 8 10 11 13 15 | 57.8 |
| 2'F-ANA at 2 3 6 7 9 11 12 13 14 15 | 271 |
| 2'F-ANA at 1 2 3 4 5 11 15 | 54.8 |
| 2'F-ANA at 1 3 5 6 8 11 12 14 | 45 |
| 2'F-ANA at 1 5 6 7 9 10 11 12 13 14 15 | 71.7 |
| 2'F-ANA at 1 3 4 8 9 11 13 | 156 |
| 2'F-ANA at 2 5 9 10 12 15 | 49.1 |
| 2'F-ANA at 1 2 5 6 7 8 | 62 |

Sample 5 — method: RNA Bind-n-Seq; molecule type: RNA; medium: in vitro; concentration: not given; reference: input RNA pool; direction: higher = stronger binding
Target: RING finger protein unkempt homolog, zinc fingers 1-6, GST-SBP tag (UNK, Homo sapiens, UniProt Q9C0B0, residues 30-357)
Sequence of UniProt Q9C0B0 (30-357, looked up): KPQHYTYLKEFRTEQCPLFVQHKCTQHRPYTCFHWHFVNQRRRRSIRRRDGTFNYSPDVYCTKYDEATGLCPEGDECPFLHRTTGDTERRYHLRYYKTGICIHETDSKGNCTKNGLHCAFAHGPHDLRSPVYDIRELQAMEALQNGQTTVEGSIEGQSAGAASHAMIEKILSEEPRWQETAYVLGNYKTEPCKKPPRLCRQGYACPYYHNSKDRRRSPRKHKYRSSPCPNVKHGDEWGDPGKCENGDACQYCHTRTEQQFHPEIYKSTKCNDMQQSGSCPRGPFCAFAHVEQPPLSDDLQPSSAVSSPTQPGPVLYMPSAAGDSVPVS
Notes: RNA with constant flanks, human-mouse chimeric sites, ends assumed
| Sequence | bound/input enrichment |
| --- | --- |
| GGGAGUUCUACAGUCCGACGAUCAGAAUCUUGGGACUGUUUUACUUAAUUGGUCAUUGAUAUCUCAACAAACAUGGAGAUAAGAUUAGAAAUCUUGACAUCAACAGGUAUUAAGCAGAAAAAACCAUGGCCACGUGUCUCCUGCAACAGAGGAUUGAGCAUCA | 0.132 ratio |
| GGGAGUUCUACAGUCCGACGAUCGUACUGCAGCAGCAGGGAAAACUGCAGGAAGCUCUGAUGCAUUAUAAGGAGGCUAUUCGAAUUAGUCCUACCUUUGCUGAUGCUUAUUCUAAUAUGGGAAACACUCUAAAGGAGAUGCAGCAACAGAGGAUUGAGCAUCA | 0.2 ratio |
| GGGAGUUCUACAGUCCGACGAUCUUCAAAGAAAAGGGCAGCUGUGUCAUUUCAUAAGUAACUCUGGGGGAUAAGUGGAAGAACUAGUUUGUUAAUUUUCCCCCAAAUGAAGCCAAAGUGUGUGUUGAAGAACUGAGAAAAAAUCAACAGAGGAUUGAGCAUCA | 0.505 ratio |
| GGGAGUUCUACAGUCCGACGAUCGCUGAAAAUGAAGAAGAGGCAGCUGAUGUCUGGUACAACCUGGGGCACAUAGCUGUGGGAAUAGGAGAUACAAACUUGGCCCACCAAUGCUUCAGGCUGGCCCUGGUCCACAACAACCACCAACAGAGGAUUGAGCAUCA | 0.287 ratio |
| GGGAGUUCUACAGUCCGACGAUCUAAGUUAUUUUGUACAGCUUUGUAAAUUCUUAACAUUUUUAUAUUGCCAUGUUUAUUUUUUUUAGAUAAUUUGGUUCAUACAUGGCCUAGCUAAGGUAAUGAACAUCUUUUUCAGUAAUUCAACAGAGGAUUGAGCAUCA | 8.86 ratio |
| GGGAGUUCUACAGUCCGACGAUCCGGAGCCCUCCUCUCCCACAGGCCCAAGAUAUAACCCACCAGUGCCUUUUGUCUUCCCGUUAGCUUUGUCAAUCACGCCUGUCCUCUCACGCCCACACCAAGUGCCCCCACCCCUAAGGGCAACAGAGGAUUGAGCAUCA | 8.64 ratio |
| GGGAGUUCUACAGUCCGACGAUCGCAGGAUCUUCUAAGUACCAGUGGGACAUUAUGAAAUCCCUUGGGCUCUCUGAUGACGAGAUAGUAAAGUUUUCUGAAGCAGAACAUUGGCUUGAUUAUUUCCCACCACUGGCCGUUCAGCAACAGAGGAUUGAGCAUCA | 0.263 ratio |
| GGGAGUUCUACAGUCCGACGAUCGCUCUUGGGAAUGUAAUCAGCGCCUUGGGGGACAAGAGCAAGAGAGCCACCCAUGUCCCUUACAGAGACUCUAAGCUAACAAGACUAUUGCAGGAUUCCCUUGGGGGUAAUAGCCAAACCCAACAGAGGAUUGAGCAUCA | 0.246 ratio |
| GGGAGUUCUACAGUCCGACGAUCACUCUUGACUCUUUCCAUCCUCUUCCUUUCCCUCUUGAUAUUCAAGGCCAUGAAUCCCAAAAUAACAAUCUAUCUUACUAGCACCCAAACAGAGGUGGGUGCCAUCCACCCCAGUGUCUCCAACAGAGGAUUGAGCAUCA | 0.816 ratio |
| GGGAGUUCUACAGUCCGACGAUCAAUAGAGGAUCCACCUCCCAAAGUGCUGGGAGUAAAGUCUGAUAUUACACACCUAACUUGAUGGAUAUAUAUUUUUUUUAAUAUGAAUCUUCCUGUUCGUCCAGGGAAGAAAGAUUUGUUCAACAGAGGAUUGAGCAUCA | 1.09 ratio |
| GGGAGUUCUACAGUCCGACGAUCAAAGCCCAAGUAUUUUGAAAAAACUCGAACAGAUUUGACAAGGGUAGCCAGCUUGGAGUCUAGCAACUUGCCAAUGUGUUUACCAAUUUUGGGGGCUGUUUUUCUUUCCCUUCCUUAAAUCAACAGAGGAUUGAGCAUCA | 0.339 ratio |
